Measured values gathered from unrelated publications.
Parts stem from different laboratories: compare values within a part only. “And” joins repeats or separate records; there may be more than shown.
Sequence of UniProt Q9UPE1 (whole entry, looked up): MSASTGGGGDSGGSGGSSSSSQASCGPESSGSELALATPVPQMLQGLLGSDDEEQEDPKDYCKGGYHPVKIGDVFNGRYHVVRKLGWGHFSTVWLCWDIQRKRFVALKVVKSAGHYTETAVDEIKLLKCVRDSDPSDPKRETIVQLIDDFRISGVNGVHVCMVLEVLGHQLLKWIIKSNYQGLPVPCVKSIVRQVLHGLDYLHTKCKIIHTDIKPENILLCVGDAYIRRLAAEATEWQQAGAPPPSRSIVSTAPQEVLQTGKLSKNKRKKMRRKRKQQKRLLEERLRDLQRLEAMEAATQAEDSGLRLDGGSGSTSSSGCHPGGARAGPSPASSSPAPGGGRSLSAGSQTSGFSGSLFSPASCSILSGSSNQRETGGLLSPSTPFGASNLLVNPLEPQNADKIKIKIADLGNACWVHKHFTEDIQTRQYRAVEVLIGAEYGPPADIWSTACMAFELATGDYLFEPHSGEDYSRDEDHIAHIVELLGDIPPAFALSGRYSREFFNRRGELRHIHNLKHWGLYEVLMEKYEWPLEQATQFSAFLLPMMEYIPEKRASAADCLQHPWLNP
Sequence of UniProt Q86YV6 (whole entry, looked up): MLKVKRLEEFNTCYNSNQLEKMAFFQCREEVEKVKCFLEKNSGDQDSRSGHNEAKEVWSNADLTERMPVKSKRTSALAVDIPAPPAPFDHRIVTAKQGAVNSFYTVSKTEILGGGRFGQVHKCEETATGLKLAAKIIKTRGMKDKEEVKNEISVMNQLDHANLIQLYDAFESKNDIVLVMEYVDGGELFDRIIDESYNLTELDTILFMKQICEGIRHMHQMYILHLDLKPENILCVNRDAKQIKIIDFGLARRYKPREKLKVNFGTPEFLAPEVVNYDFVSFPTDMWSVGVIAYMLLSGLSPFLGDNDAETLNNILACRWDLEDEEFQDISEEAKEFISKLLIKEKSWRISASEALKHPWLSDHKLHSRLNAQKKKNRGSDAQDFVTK
Sequence of UniProt Q00526 (whole entry, looked up): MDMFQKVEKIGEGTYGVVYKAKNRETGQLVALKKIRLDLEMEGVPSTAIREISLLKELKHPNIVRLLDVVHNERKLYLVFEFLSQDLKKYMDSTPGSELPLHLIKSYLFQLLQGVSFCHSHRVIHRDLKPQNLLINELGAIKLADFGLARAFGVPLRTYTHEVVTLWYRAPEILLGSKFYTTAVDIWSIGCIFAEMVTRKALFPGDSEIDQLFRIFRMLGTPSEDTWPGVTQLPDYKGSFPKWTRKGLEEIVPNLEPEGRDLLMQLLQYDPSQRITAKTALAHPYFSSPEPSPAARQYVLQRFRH
Sequence of UniProt P78368 (whole entry, looked up): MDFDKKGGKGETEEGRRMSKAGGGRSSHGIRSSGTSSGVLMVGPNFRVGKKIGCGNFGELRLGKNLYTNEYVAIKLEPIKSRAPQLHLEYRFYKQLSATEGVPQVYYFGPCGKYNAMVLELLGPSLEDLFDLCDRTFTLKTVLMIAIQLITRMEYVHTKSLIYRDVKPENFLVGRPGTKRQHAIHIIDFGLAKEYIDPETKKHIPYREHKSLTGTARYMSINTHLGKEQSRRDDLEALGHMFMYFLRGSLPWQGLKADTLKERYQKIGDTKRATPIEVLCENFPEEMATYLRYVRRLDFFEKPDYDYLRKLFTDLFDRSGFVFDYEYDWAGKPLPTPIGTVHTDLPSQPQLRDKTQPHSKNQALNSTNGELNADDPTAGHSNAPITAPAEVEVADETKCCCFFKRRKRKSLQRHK
Sequence of UniProt Q15375 (whole entry, looked up): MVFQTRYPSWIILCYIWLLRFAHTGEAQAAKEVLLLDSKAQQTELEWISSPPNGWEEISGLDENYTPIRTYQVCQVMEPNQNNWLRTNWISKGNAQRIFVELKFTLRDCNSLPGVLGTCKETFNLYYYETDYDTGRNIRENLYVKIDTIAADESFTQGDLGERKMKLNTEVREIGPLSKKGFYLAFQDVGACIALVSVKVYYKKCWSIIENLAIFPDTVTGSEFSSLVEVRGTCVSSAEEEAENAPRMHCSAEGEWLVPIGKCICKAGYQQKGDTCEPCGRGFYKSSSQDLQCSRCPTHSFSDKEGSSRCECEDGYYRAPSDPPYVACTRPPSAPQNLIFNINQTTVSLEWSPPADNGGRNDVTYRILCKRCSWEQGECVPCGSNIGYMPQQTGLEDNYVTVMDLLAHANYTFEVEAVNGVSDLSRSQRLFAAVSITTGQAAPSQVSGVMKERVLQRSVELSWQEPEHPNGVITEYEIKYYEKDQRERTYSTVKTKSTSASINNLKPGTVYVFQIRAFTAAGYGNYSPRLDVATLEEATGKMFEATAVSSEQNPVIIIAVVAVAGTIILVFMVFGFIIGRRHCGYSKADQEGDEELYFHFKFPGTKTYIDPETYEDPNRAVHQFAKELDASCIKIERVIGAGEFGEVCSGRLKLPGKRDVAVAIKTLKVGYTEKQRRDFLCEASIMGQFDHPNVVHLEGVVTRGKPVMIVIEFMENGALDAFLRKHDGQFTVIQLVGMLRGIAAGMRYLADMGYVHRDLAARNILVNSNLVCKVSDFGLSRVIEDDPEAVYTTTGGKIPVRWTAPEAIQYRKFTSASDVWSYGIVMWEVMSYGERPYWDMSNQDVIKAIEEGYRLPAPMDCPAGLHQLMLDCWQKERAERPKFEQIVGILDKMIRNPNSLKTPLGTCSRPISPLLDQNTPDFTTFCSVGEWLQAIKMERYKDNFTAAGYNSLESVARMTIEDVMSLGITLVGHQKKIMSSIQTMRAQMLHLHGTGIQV
Sequence of UniProt P52564 (whole entry, looked up): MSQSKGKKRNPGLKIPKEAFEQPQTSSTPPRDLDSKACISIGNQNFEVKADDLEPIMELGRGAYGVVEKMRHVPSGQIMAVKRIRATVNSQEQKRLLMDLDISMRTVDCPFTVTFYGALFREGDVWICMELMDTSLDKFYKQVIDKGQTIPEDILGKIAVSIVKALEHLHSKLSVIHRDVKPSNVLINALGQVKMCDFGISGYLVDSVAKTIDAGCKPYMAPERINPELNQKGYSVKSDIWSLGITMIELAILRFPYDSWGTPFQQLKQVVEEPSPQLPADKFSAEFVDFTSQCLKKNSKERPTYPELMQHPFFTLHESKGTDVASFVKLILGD
Sequence of UniProt Q09013 (whole entry, looked up): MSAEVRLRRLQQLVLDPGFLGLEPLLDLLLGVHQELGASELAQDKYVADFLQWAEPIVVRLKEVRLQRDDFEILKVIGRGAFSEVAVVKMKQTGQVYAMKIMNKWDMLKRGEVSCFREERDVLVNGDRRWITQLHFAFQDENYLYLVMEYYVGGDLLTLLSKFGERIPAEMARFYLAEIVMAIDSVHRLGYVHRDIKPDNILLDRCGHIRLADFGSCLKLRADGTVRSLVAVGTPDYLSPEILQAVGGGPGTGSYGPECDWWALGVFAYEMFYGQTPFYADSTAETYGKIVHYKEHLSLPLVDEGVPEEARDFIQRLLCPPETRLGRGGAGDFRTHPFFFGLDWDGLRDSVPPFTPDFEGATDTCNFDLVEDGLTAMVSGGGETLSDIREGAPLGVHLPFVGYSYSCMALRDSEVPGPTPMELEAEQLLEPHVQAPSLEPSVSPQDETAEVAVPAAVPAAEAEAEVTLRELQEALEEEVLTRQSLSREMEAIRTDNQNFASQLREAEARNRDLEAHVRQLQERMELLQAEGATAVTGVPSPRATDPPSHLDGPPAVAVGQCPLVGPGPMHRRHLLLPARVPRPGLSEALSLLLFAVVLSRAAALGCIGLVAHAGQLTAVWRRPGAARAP
Sequence of UniProt P21127 (whole entry, looked up): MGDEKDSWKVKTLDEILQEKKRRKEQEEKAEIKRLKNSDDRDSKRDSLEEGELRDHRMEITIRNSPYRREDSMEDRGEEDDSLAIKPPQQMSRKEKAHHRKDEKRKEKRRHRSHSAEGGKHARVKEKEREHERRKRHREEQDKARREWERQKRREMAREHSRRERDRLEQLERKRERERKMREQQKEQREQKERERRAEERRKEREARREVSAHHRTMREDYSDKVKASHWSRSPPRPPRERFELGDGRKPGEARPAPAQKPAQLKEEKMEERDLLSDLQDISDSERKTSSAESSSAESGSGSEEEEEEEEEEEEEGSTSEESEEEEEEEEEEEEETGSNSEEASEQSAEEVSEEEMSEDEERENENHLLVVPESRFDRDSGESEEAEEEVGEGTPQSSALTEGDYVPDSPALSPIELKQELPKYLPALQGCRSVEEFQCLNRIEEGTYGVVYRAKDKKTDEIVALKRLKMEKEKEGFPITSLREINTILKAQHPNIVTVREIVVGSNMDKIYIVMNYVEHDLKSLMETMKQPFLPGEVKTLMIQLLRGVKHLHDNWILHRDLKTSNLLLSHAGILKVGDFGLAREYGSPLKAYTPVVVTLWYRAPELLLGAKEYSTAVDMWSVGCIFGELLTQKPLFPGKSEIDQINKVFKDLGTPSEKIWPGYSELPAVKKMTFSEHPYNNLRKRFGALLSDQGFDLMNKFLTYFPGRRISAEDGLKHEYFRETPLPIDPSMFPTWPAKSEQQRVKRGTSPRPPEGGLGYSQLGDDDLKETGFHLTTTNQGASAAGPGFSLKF
Sequence of UniProt O94921 (whole entry, looked up): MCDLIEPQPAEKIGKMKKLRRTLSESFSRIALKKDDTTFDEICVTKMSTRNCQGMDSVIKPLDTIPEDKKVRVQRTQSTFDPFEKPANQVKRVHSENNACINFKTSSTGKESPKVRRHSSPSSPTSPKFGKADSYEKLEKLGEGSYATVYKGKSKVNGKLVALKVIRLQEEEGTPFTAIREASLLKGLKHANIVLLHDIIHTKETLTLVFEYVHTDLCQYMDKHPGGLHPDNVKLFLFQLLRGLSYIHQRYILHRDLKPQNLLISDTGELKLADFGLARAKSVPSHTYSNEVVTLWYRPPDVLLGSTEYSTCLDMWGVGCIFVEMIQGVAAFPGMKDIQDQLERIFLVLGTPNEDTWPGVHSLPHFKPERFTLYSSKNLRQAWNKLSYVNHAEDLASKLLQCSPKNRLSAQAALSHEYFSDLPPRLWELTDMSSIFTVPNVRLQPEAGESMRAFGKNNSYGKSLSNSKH

Study 1 — mode: inhibitor; tested at: 1 µM
Structure (SMILES): CO[C@@H]1[C@H](N(C)C(=O)c2ccccc2)C[C@H]2O[C@]1(C)n1c3ccccc3c3c4c(c5c6ccccc6n2c5c31)C(=O)NC4
target | assay | inhibition
Proto-oncogene tyrosine-protein kinase receptor Ret (RET, Homo sapiens, UniProt P07949, V804L) | enzyme activity | 99%
Ribosomal protein S6 kinase alpha-2, kinase domain 1 (RPS6KA2, Homo sapiens, UniProt Q15349) | – | 78%
Myotonin-protein kinase (DMPK, Homo sapiens, UniProt Q09013) | enzyme activity | 0%
Receptor-interacting serine/threonine-protein kinase 1 (RIPK1, Homo sapiens, UniProt Q13546) | enzyme activity | 0%
Serine/threonine-protein kinase Nek3 (NEK3, Homo sapiens, UniProt P51956) | enzyme activity | 18%
Mitogen-activated protein kinase kinase kinase 6 (MAP3K6, Homo sapiens, UniProt O95382) | enzyme activity | 34%
Cyclin-dependent kinase 3 (CDK3, Homo sapiens, UniProt Q00526) | enzyme activity | 0%
Dual specificity mitogen-activated protein kinase kinase 6 (MAP2K6, Homo sapiens, UniProt P52564) | enzyme activity | 0%
Phosphatidylinositol 4,5-bisphosphate 3-kinase catalytic subunit alpha isoform (PIK3CA, Homo sapiens, UniProt P42336, E542K) | enzyme activity | 32%

Study 2 — technique: competition with immobilised ligand; tested at: 1 µM
SMILES: O=C(O)[C@@H]1[C@@H](Cn2nnc3ccccc3c2=O)CC[C@H]1C(=O)c1ccc(OCCC2CCOCC2)cc1
target | assay | remaining binding [%]
Bone morphogenetic protein receptor type-1A (BMPR1A, Homo sapiens, UniProt P36894) | binding | 100
eIF-2-alpha kinase GCN2, C-terminal kinase domain (EIF2AK4, Homo sapiens, UniProt Q9P2K8, S808G) | cell-free assay | 100
SRSF protein kinase 3 (SRPK3, Homo sapiens, UniProt Q9UPE1) | cell-free assay | 100
Cyclin-dependent kinase 11B (CDK11B, Homo sapiens, UniProt P21127) | cell-free assay | 99
Phosphatidylinositol 4-phosphate 3-kinase C2 domain-containing subunit beta (PIK3C2B, Homo sapiens, UniProt O00750) | cell-free assay | 100
Cyclin-dependent kinase 14 (CDK14, Homo sapiens, UniProt O94921) | cell-free assay | 100
cGMP-dependent protein kinase 1 (PRKG1, Homo sapiens, UniProt Q13976) | cell-free assay | 100
Ephrin type-A receptor 7 (EPHA7, Homo sapiens, UniProt Q15375) | cell-free assay | 100
Fibroblast growth factor receptor 4 (FGFR4, Homo sapiens, UniProt P22455) | cell-free assay | 99
Macrophage-stimulating protein receptor (MST1R, Homo sapiens, UniProt Q04912) | cell-free assay | 91
NT-3 growth factor receptor (NTRK3, Homo sapiens, UniProt Q16288) | cell-free assay | 86
Myosin light chain kinase family member 4 (MYLK4, Homo sapiens, UniProt Q86YV6) | cell-free assay | 100
Casein kinase I isoform gamma-2 (CSNK1G2, Homo sapiens, UniProt P78368) | cell-free assay | 100
Insulin receptor (INSR, Homo sapiens, UniProt P06213) | cell-free assay | 85
Receptor tyrosine-protein kinase erbB-3 (ERBB3, Homo sapiens, UniProt P21860) | cell-free assay | 94

Study 3 — effect on: enzyme activity; mode: inhibitor; tested at: 0.5 µM; baseline: control
Target: SRSF protein kinase 3 (SRPK3, Homo sapiens, UniProt Q9UPE1)
Compound | remaining activity
Cc1cn(-c2cc(NC(=O)c3ccc(C)c(Nc4nccc(-c5cccnc5)n4)c3)cc(C(F)(F)F)c2)cn1 | 101%
O=C1C(Cl)=C(N2C(=O)CCC2=O)C(=O)c2ccccc21 | 93.6%
Cn1nc2c3c(cccc31)C(=O)c1ccccc1-2 | 96.3%
CCOc1nc(NC(=O)Cc2cc(OC)ccc2OC)cc(N)c1C#N | 92.3%
Cc1cc2ncc(-c3ccccc3)nc2cc1C | 91.4%
COc1cc2c(cc1OC)-c1[nH]nc(Nc3cccc(F)c3)c1C2 | 99.7%
Ic1cccc(CSc2nnc(-c3ccncc3)o2)c1 | 101%
CCN(CC)C(=O)c1ccc(Nc2nc(OCC3CCCCC3)c3[nH]cnc3n2)cc1 | 68.1%
COc1cc2ncnc(Nc3ccc(O)c(Br)c3)c2cc1OC | 92.4%
c1ccc(-c2[nH]ncc2-c2ccnc3ccccc23)nc1 | 88.9%
C[C@@H]1CCN(C(=O)CC#N)C[C@@H]1N(C)c1ncnc2[nH]ccc12 | 103%
Cc1nc2cc3nc(-c4cccs4)cnc3cc2n1C | 96.6%
CN([C@@H](Cc1ccc(OS(=O)(=O)c2cccc3cnccc23)cc1)C(=O)N1CCN(c2ccccc2)CC1)S(=O)(=O)c1cccc2cnccc12 | 98%

Study 4 — cell line: mouse MPNST tumor cells; technique: high-content immunofluorescence imaging; measured: nuclear SOX9; tested at: 10 µM; time: 12 h; notes: mean of 2 replicates; baseline: DMSO control; reading: higher = more nuclear SOX9
Structure (SMILES) | nuclear SOX9 intensity
COCCOC(=O)C1=C(C)NC(C)=C(C(=O)OC/C=C/c2ccccc2)C1c1cccc([N+](=O)[O-])c1 (stereo not shown) | 136 % of DMSO and 137 % of DMSO
COc1ccccc1CC(=N)N1C[C@@H]2C(=O)CCC(c3ccccc3)(c3ccccc3)[C@@H]2C1 | 136 % of DMSO
CCCCOCCOc1nc(-c2ccc(C(=O)O)c(F)c2)sc1C | 121 % of DMSO
Cn1c(NCCN(CCO)CCCc2ccc([N+](=O)[O-])cc2)cc(=O)n(C)c1=O | 90.4 % of DMSO
CC(C)C(NC(=O)Cn1c(-c2ccccc2)ncc(N)c1=O)C(=O)c1nnc(C(C)(C)C)o1 (stereo not shown) | 90.3 % of DMSO
Clc1ccc(C(Cn2ccnc2)OCc2csc3c(Cl)cccc23)c(Cl)c1 (stereo not shown) | 147 % of DMSO
Cn1c(CNc2cccc(C(=O)NCc3ccccc3C(F)(F)F)c2)nnc1-c1ccncc1 | 121 % of DMSO
CC(C)(C)C(=O)OCOC(=O)[C@@H]1N2C(=O)[C@@H](/N=C/N3CCCCCC3)[C@H]2SC1(C)C | 117 % of DMSO
CC(=O)Nc1c(I)c(NC(C)=O)c(I)c(C(=O)O)c1I | 98.5 % of DMSO

For quick reference, copied from above (study 3):
Compound | remaining activity
CCOc1nc(NC(=O)Cc2cc(OC)ccc2OC)cc(N)c1C#N | 92.3%
Cc1cc2ncc(-c3ccccc3)nc2cc1C | 91.4%
COc1cc2c(cc1OC)-c1[nH]nc(Nc3cccc(F)c3)c1C2 | 99.7%
Ic1cccc(CSc2nnc(-c3ccncc3)o2)c1 | 101%
